{"data": "Experimental data pooled from the literature", "target": "Cholecystokinin receptor type A (CCKAR, Homo sapiens, UniProt P32238)", "note": "Each line is one published result; not all experiments were run side by side. Values joined by “and” are separate records of one study, mostly repeats; a detail may differ."}
{"Structure (SMILES)": "CCc1nnc(-c2c(OC)cc(-c3cnc4cc(-c5cnn(C)c5)ccn34)cc2OC)o1", "test": "agonist, radioligand binding", "conditions": "10 µM", "how to read": "relative to: control", "quantity": "specific binding", "value": "87.3%"}
{"Structure (SMILES)": "CCN(CC)CCOc1ccc(-c2nnn(Cc3ccc(OC)cc3)c2N)cc1", "test": "radioligand binding", "conditions": "10 µM, human, added: radioligand 10000 nM", "quantity": "inhibition", "value": "-1.51%"}
{"Structure (SMILES)": "Cc1ccc2c(n1)c(-c1cccc(S(C)(=O)=O)c1)c(C)n2C/C(F)=C/CN", "test": "ligand displacement, radioligand", "conditions": "10 µM", "quantity": "inhibition", "value": "11%"}
{"Structure (SMILES)": "Cc1cc(Nc2nc(C[C@@]3(C(=O)O)CCN(Cc4cccc(Cl)c4F)[C@H](C)C3)cc(C)c2F)[nH]n1", "test": "inhibitor", "conditions": "10 µM", "quantity": "inhibition", "value": "-19%"}
{"Structure (SMILES)": "Cc1cc(-c2ccc3ccccc3c2)nnc1NCCN1CCN(C)CC1", "test": "antagonist", "conditions": "concentration not given", "quantity": "antagonist activity", "value": "negative"}
{"Structure (SMILES)": "C/C(=N\\OCCCN1CCCCC1)c1ccc(C(F)(F)F)cc1", "test": "agonist, IP-One", "conditions": "10 µM", "quantity": "activation", "value": "2.11%"}
{"Structure (SMILES)": "CS(C)(=O)=Nc1ccc(-c2ccc(-c3nc4cc(O[C@@H]5CO[C@H]6[C@@H]5OC[C@H]6O)[nH]c4cc3F)cc2)cc1", "test": "calcium signal, antagonist", "conditions": "10 µM", "quantity": "inhibition", "value": "-17%"}
{"Structure (SMILES)": "COc1ccc(F)cc1S(=O)(=O)Nc1cnc2c(c1)C(=O)NCCO2", "test": "ligand displacement, radioligand", "conditions": "10 µM", "quantity": "inhibition", "value": "8%"}
{"Structure (SMILES)": "CCOC(=O)[C@](CC)(CCCSCCOCCOCCNC(=O)c1ccc(-c2c3ccc(=N)c(S(=O)(=O)O)c-3oc3c(S(=O)(=O)O)c(N)ccc23)c(C(=O)O)c1)NC(=O)c1ccc(C2CC2)c(Cc2ccc(F)cc2)n1", "test": "ligand displacement, radioligand", "conditions": "10 µM", "quantity": "inhibition", "value": "23%"}
{"Structure (SMILES)": "Cc1sc2c(c1C)C(c1ccc(Cl)cc1)=NC(CC(=O)OC(C)(C)C)c1nnc(C)n1-2 (centres unmarked)", "test": "ligand displacement, radioligand", "conditions": "1 µM", "quantity": "remaining binding", "value": "91.1%"}
{"Structure (SMILES)": "O=C(O)c1ccc(-c2nc(-c3ccccc3Cl)c3sccn23)cc1", "test": "radioligand binding, safety screen panel", "conditions": "10 µM", "how to read": "relative to: control", "quantity": "specific binding", "value": "51.7% and 55.6%"}
{"note": "Some of these lines once more:"}
{"Structure (SMILES)": "O=C(O)c1ccc(-c2nc(-c3ccccc3Cl)c3sccn23)cc1", "test": "radioligand binding, safety screen panel", "conditions": "10 µM", "how to read": "relative to: control", "quantity": "specific binding", "value": "51.7% and 55.6%"}
